# Measured values collected from several papers.
# Each numbered part is a random draw from the data of one study; scales do not carry over between parts.
# Sequence of UniProt Q96NX5 (whole entry, looked up): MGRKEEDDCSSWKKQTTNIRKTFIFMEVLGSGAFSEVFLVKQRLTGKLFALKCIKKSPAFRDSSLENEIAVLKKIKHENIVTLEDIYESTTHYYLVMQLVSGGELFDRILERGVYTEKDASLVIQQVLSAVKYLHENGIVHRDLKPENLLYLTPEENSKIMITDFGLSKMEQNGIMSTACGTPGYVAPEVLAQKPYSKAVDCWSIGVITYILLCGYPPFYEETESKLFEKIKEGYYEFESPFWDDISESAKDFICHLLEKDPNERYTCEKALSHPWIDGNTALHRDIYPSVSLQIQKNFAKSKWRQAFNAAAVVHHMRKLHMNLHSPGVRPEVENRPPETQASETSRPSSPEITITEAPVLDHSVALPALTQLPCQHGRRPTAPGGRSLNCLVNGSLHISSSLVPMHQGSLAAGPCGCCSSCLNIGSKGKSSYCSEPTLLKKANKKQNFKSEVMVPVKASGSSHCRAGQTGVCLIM
# Sequence of UniProt Q8TDC3 (whole entry, looked up): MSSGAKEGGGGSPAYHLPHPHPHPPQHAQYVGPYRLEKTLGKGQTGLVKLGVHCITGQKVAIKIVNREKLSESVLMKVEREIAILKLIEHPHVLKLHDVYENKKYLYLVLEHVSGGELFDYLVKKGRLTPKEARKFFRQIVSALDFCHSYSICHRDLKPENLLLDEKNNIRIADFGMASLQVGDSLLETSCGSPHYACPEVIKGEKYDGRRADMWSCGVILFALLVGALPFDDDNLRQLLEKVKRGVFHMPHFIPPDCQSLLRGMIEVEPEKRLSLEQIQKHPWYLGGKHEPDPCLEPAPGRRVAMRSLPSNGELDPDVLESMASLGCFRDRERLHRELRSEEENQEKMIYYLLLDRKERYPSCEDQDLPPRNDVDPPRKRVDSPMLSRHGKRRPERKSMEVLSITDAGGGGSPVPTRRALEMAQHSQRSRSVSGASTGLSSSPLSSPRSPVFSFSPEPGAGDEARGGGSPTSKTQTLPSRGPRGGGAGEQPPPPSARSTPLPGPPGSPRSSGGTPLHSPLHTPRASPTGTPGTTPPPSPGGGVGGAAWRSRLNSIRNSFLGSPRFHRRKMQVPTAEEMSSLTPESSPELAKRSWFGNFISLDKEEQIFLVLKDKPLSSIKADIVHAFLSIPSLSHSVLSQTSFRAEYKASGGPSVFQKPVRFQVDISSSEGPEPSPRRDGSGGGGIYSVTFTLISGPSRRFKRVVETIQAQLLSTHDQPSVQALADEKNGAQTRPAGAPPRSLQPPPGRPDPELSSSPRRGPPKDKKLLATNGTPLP
# Sequence of UniProt P53779 (whole entry, looked up): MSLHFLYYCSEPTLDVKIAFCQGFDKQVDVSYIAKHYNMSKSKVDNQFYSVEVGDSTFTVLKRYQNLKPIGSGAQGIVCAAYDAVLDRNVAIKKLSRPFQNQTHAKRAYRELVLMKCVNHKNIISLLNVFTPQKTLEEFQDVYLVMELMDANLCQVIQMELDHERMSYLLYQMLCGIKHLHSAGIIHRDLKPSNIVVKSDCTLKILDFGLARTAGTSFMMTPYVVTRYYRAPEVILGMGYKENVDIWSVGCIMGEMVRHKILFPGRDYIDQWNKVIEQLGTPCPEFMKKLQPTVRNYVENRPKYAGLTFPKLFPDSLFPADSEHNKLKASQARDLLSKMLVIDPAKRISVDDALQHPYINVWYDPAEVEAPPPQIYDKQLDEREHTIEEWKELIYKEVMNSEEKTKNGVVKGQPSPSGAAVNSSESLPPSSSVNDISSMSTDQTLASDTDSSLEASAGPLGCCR
# Sequence of UniProt Q15139 (whole entry, looked up): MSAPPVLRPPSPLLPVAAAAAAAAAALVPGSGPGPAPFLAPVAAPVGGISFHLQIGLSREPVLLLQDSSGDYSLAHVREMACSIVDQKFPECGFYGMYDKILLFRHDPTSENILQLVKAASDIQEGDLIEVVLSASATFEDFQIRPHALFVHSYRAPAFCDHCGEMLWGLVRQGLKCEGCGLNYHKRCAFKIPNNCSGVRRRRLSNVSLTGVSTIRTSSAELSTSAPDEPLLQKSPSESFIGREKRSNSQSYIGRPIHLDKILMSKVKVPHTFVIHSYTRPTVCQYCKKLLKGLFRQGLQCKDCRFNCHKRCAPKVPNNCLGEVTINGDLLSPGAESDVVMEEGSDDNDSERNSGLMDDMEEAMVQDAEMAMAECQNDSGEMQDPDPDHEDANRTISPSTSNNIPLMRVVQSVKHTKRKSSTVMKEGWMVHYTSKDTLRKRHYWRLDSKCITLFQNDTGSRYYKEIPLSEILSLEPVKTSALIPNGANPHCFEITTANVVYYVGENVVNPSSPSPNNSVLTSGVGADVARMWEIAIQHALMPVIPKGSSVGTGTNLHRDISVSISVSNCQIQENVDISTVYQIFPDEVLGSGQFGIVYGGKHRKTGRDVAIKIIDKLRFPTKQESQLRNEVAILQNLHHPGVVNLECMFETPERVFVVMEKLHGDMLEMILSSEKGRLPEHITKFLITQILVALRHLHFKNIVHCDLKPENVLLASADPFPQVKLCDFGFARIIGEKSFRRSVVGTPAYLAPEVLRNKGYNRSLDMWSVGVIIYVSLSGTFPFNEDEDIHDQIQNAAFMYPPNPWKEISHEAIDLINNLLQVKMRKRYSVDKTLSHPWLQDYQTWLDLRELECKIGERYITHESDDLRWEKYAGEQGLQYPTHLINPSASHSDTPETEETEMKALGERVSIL
# Sequence of UniProt P08922 (whole entry, looked up): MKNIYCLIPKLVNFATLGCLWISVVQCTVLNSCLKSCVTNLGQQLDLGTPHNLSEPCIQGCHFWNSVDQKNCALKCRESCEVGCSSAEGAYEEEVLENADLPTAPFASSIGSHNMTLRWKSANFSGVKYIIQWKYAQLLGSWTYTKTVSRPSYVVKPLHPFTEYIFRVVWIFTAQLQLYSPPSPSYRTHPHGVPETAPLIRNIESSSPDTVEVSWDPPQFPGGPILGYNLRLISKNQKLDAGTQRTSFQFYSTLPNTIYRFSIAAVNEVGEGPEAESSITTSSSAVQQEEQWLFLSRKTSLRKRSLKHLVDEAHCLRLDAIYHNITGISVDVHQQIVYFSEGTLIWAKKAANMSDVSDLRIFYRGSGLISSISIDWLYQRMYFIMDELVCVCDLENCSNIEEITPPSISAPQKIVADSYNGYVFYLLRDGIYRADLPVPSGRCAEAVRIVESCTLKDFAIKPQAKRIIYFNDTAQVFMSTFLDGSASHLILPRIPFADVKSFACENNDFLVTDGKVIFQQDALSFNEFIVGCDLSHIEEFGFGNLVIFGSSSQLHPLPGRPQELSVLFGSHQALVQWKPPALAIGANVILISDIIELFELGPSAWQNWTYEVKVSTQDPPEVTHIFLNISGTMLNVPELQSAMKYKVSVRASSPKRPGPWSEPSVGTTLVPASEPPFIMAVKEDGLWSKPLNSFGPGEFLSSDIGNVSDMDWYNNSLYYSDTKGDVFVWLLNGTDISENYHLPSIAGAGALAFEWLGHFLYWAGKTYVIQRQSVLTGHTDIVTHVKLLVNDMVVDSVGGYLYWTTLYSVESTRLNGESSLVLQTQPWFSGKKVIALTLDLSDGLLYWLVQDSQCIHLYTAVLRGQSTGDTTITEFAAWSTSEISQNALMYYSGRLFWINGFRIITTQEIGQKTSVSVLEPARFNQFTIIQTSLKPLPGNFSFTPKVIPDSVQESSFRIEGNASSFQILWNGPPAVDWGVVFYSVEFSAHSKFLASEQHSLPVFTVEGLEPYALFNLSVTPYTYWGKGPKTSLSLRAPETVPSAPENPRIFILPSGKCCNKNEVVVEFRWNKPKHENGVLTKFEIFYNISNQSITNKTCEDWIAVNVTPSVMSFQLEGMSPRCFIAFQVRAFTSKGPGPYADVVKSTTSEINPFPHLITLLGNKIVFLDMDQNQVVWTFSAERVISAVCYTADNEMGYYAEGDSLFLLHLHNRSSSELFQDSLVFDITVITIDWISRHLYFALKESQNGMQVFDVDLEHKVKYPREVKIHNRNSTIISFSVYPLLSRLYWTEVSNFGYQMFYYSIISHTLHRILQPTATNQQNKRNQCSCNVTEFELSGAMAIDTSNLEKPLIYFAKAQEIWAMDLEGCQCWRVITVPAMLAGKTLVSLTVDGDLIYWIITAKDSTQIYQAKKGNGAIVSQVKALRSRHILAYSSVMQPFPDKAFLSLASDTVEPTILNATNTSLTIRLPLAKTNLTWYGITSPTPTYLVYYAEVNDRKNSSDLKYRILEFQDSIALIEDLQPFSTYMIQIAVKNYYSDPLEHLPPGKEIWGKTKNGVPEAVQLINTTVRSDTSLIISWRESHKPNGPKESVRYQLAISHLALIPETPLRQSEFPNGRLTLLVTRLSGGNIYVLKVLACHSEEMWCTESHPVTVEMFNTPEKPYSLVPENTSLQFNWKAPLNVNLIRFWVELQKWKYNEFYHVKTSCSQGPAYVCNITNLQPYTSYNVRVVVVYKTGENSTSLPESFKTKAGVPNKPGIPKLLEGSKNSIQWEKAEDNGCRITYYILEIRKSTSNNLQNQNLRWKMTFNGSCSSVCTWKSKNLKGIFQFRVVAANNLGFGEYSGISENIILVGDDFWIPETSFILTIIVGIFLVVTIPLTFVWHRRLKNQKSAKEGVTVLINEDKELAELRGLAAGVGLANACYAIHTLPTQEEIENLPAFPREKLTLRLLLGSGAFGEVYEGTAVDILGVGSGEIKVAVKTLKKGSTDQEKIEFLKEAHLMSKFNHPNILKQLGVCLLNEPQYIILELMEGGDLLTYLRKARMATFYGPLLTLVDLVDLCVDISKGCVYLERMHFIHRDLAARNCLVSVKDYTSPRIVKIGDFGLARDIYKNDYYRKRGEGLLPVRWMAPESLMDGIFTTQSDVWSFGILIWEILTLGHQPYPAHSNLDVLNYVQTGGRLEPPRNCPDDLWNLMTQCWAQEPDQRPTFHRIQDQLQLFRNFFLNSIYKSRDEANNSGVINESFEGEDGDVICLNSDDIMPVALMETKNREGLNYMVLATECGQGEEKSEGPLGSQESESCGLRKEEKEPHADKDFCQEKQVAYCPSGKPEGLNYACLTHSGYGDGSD

# Sample 1
# SMILES: CSc1nc(-c2ccnc(N[C@@H](C)c3ccccc3)c2)c(-c2ccc(F)cc2)[nH]1 (racemic)
# Read-out: enzyme activity
# Action: inhibitor
# Tested at: 0.5 µM
# Relative to: control
target,remaining activity
"CAMK1D (Homo sapiens, UniProt Q8IU85)",91.7%
"CAMK1G (Homo sapiens, UniProt Q96NX5)",98.3%
"Cyclin-dependent kinase 2, with cyclin A (CDK2, Homo sapiens, UniProt P24941)",96.8%
"ROS1 (Homo sapiens, UniProt P08922)",99.1%
"PTK2B (Homo sapiens, UniProt Q14289)",100%
"PKN2 (Homo sapiens, UniProt Q16513)",76.1%
"Aurora kinase A (AURKA, Homo sapiens, UniProt O14965)",99.9%
"CSNK2A2 (Homo sapiens, UniProt P19784)",88.8%
"NEK9 (Homo sapiens, UniProt Q8TD19)",89.4%
"BRSK1 (Homo sapiens, UniProt Q8TDC3)",84.6%
"MAPK10 (Homo sapiens, UniProt P53779)",125%
"PRKD1 (Homo sapiens, UniProt Q15139)",90.1%
"MAP3K2 (Homo sapiens, UniProt Q9Y2U5)",101%

# Sample 2
# Host: mouse
# Sample: microsomes or S9
# Tested at: 2 µM
# Time: 0.5 h
SMILES,remaining compound [%]
N#Cc1nc(N2CCCC2)nc(N(c2ccccc2)c2ccccc2)n1,15.2
CN(C)S(=O)(=O)c1cc(C(=O)NC2CCCCC2)c(Cl)cc1Cl,1.56
O=C(O[C@@H]1Cc2c(O)cc(O)cc2O[C@@H]1c1ccc(O)c(O)c1)c1cc(O)c(O)c(O)c1,37
O=C(c1c2c(nc3ccccc13)C(=O)N(C1CCCCC1)C2)N1CCN(c2ccccn2)CC1,26.4
CC1CN(C(=O)c2cnc3n(c2=O)CCS3)C(C)CO1 (stereo not shown),93.9
COc1cc(=O)n(C)cc1C(=O)NCCCn1ncccc1=O,> 99
Fc1ccc(-n2ccc(CN3CCC(Nc4cccnn4)CC3)n2)c(F)c1,74
O=C(Nc1ccc2[nH]ncc2c1)c1csc2ccccc12,10.1
O=S(=O)(NCC(c1ccco1)S(=O)(=O)c1cccs1)c1ccc2c(c1)CCCC2 (stereo not shown),3.29
Cc1nccn1S(=O)(=O)c1ccc(C(C)(C)C)cc1,17.8
CCCNS(=O)(=O)c1ccc(CCC(=O)N2CCC(C(=O)OCC)CC2)cc1,< 1
O=S(=O)(c1ccccc1)c1nc(-c2ccccc2)oc1NCC1CCCO1 (stereo not shown),1.72

# Further values, each from its own experiment
Compound,cell line,technique,tested at,time,relative to,measurement,result
CCOC(=O)c1cnc2ccc(-c3cncc(NS(=O)(=O)c4ccccc4)c3)cn12,HuT78,CCK-8,2 µM,48 h,untreated control,log10 relative viability,-1.13
Cn1cncc1[C@@](O)(COc1ccc(C#N)cc1-c1ccc(OC(F)(F)F)cc1)c1ccc(C#N)cc1,HEK293T,high-content imaging,10 µM,24 h,,pyknotic nuclei,31.1%
Cc1[nH]nc2ccc(-c3cncc(OC[C@@H](N)Cc4ccccc4)c3)cc12,HuT78,CCK-8,2 µM,48 h,untreated control,log10 relative viability,-0.954

# Some of these lines once more (sample 1):
target,remaining activity
"BRSK1 (Homo sapiens, UniProt Q8TDC3)",84.6%
